Measured values from different studies.
Parts stem from different laboratories: compare values within a part only.

Block 1 — method: RNA Bind-n-Seq; molecule type: RNA; medium: in vitro; tested at: 365 nM; relative to: no-protein control; direction: higher = stronger binding; quantity: RBNS enrichment (R)
Target: RNA binding protein fox-1 homolog 2, RRM domain, GST-SBP tag (RBFOX2, Homo sapiens, UniProt O43251-10, residues 100-194)
Setting: natural RNA segment, single round, ends assumed
Residues (chain): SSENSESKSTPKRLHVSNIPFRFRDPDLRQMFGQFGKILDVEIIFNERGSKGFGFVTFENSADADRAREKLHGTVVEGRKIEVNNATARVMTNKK
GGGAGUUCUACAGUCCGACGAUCCAGACAGGACAGCUGGACCACAGAGUUUAUUUUUGUAUUUCUUAUUGGGCCUGUACACUCCAGCUCUAAGGGCCAGUAGUUUGAAGCCCUAUAAGUGGUGCCCAGUGUUCUGGAAUUCUCGGGUGCCAA: 0.356
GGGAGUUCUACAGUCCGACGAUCGAGCGGCCCAGCUCUGGGGGGCACGAGGUCACCUCCGAUGCCACUUACCAGCCUUUCUGAUUCUUUUUUAGCUCCCCGAUUGUCUACCCCGCAUCCCUGGUCACAUGCCCUGGAAUUCUCGGGUGCCAA: 0.465
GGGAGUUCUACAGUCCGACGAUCGGUAAAGGGGAAAAAAAGGUUUAAGAAAAGGAAAUUUGGAAAUUGCCUUGCAGAUAUUUCGGUACCGCUGAGUUUUCUUUCUUUUCCCAAGUGGGAAGAAGGCACACCUAUGGAAUUCUCGGGUGCCAA: 0.637
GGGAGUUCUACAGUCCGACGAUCCCACUGCCCCAGUCUUGGCCAGAGAUACCCCUCCUGCCUGACUGGAAGCUGCACAUCUGCCCACUGAGCUUUGGUGAAAGGUCCAGAGGCUUUGGGGACCUCUGUUCCUGUGGAAUUCUCGGGUGCCAA: 0.325
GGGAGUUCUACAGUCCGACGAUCAAGAAAUACAGAGUAAAGCUAAAAUAAUUGUUUACCAAUAUUUUGAGAGGUAACAAAUAGGGAGAUACGGGUUGAGACUGCAUAAAAAACGUACUGCUGGUUGAAUAUCUUGGAAUUCUCGGGUGCCAA: 1.05
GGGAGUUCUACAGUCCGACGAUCAGUGUUCUCAUGAAGCAGGAGGCCCUUGUCGUGGGAUGGCAUUUGGUCUCAGGCAGCACCACACUGGGUGCGUCUCCAGUCAUCUGUAAGAGCUUGCUCCAGAUUCUGAUUGGAAUUCUCGGGUGCCAA: 0.475
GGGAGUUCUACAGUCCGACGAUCGUUGUUUGUAUUUUGCUUAACUAAAACAAAAAUGCUUUUAUCUUGCUAUAGAAUAAACACAUUUCAGAAAAUCUGUGGACUGUAUUUUGAUGCAACCGCAAGGACACUGUUGGAAUUCUCGGGUGCCAA: 0.481
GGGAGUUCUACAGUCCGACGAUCAACUGUUUAACUUGAACCCAGGAUUGUUUAAAGCUUUAUUUAUUUAUAGCUUCUUCUUAAAAAAAAGUGUUGAAGAAAUUUUUUGGUUAUUCAUACAAAAAAAUGAGUUGUGGAAUUCUCGGGUGCCAA: 0.963
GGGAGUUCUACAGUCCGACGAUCCUGAUGUUUGUUUUCGAUGAGGUUCCAUGUUUUGUUUUCUUGGGAAUAAAUUAAUAUAUUGUUUUCCACUUCGGGGAUACUGUGUAUUUUUAUAUGACAAUUGGUUAAAAUGGAAUUCUCGGGUGCCAA: 1.21

Block 2 — method: RNA Bind-n-Seq; molecule type: RNA; medium: in vitro; tested at: 200 nM; setting: whole 134-nt RNA, ends assumed; added: 150 mM LiCl; relative to: input library; direction: higher = stronger binding; quantity: log2 enrichment; each molecule: 7-deaza-guanosine replaces G
Target: Ras GTPase-activating protein-binding protein 1, full length (G3BP1, Homo sapiens, UniProt Q13283)
Chain of UniProt Q13283 (whole entry, looked up): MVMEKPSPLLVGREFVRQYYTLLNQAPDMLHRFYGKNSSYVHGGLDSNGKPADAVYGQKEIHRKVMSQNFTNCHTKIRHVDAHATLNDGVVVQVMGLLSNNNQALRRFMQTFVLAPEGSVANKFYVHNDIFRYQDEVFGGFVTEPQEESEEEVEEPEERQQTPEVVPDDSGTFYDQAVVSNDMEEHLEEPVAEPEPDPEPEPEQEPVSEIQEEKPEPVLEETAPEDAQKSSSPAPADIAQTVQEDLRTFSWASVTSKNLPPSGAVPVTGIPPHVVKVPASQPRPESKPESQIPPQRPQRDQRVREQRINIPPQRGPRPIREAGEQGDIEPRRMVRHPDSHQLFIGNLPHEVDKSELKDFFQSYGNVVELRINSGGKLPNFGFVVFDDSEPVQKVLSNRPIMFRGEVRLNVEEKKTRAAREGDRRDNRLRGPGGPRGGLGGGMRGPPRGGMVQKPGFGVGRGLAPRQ
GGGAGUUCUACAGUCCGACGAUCCACAGACAACACGCACCCACACAGACACAGAGGGAAGGGGUUGGGAUGGGGACAGGGUGCACAGCAGGGCGGGGUAGGACCAAAGCCCCUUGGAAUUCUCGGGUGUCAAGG: -0.842
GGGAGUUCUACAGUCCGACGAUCGUCCUGUGCUACACAUCGUAUGUACCGAAUCGGGAAAAAGGGUUUGGGAAAAAAAGGGAAAGUAUUAUGUUACGCCGUUCGGAUCUGCACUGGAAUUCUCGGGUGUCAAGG: -1.9
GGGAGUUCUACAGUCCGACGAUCCAACGUUGAAAUGGAUUGGGUGUUGAAGCAUACUGGUCCAAAUAGUCCUGACACGGCCAAUGAUGGCUUUGUACGGCUUAGAGGACUUCCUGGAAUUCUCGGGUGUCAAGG: -1.96
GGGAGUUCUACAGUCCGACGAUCUCCUCAAGUCCUGUGCUACACAUCGUAUGUACCGAAUCGGAGGGGAGGAGGGAAAGUAUUAUGUUACGCCGUUCGGAUCUGCACUUCCAGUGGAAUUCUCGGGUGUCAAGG: -0.269
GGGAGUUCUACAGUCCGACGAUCCAAGUCCUGUGCUACACAUCGUAUGUACCGAAUCGGUUUUGGGUUUUGGUUUUGGGAAAGUAUUAUGUUACGCCGUUCGGAUCUGCACUUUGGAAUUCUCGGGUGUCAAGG: -1.06
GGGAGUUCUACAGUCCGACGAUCUCAAGUCCUGUGCUACACAUCGUAUGUACCGAAUCGGGUUUGGUUUGGGUUUGGGAAAGUAUUAUGUUACGCCGUUCGGAUCUGCACUUCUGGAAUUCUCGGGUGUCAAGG: -1.45
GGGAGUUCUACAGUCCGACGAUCCCUCAAGUCCUGUGCUACACAUCGUAUGUACCGAAUCGGGGCGGGGCGGCGGAAAGUAUUAUGUUACGCCGUUCGGAUCUGCACUUCCAGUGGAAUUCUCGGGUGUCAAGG: -0.883
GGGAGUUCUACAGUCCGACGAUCGCAGGAAGUAAAAACAAAUGGAAAGGCUUCGGAUAGUGGCAGGGGUGGGGGUUGCUAAGGAAAGGGUGGGAUGGGAGUGGGUAAAGAGUUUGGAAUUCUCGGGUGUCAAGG: -0.295
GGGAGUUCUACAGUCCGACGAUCACCAUGCAGGUGGGCAUCUUUGGGAAGUGGGGCAAGGGGGGGAUAGGGAGGGGGGUAAUACUUUGGGAACAGGUGGUCCCAGGUCGUUUCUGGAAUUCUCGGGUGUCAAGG: 0.254
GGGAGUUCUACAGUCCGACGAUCCUCAAGUCCUGUGCUACACAUCGUAUGUACCGAAUCGGGGAAGGGAAGGAAGGAAAGUAUUAUGUUACGCCGUUCGGAUCUGCACUUCCAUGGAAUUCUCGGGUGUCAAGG: -0.816
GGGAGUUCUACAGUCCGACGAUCCAAGUCCUGUGCUACACAUCGUAUGUACCGAAUCGGUGGAAAAAGGAAAAAAAGGAAAGUAUUAUGUUACGCCGUUCGGAUCUGCACUUCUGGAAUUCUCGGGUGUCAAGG: -0.66

Block 3 — method: RNA Bind-n-Seq; molecule type: RNA; medium: in vitro; tested at: not given; relative to: input RNA pool; direction: higher = stronger binding; quantity: bound/input enrichment
Target: RING finger protein unkempt homolog, zinc fingers 1-6, GST-SBP tag (UNK, Homo sapiens, UniProt Q9C0B0, residues 30-357)
Setting: RNA with constant flanks, human and mouse sites, ends assumed
Residues (chain): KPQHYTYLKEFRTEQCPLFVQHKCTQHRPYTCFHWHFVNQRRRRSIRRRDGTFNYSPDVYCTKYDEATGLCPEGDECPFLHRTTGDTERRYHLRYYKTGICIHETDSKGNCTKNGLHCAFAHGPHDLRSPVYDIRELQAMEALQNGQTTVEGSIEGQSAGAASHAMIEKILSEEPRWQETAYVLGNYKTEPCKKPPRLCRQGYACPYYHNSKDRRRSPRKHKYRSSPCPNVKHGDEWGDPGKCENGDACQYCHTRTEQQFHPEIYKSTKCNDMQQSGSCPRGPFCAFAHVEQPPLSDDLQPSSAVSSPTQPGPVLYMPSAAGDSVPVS
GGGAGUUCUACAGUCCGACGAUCAUCAAAGUCCACGCCUGCGGUGUCAACCCAGUAGAGACAUACAUUCGCUCUGGGGCCUACAGUCGAAAACCUGCCCUACCCUACACUCCAGGCUCUGAUGUGGCUGGGAUCAUAGAAUCCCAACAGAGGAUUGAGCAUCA: 0.195 ratio
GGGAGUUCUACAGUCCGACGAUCACUGGAAAAAAAAAUCGCCACCUGUUCUUACACCAGUAUUUGGUUCAAGACACCAAAUGUCUUCAGCCCAUGGCUGAAGAACAACAGAAGAGAGUCAGGAUAAAAAAUACAUACUGUGGUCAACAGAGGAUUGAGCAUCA: 0.192 ratio
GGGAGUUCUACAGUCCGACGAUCUUCCUUGCAAGUCUGGCUGCUGCGGGGAGUGGCACAGAUGCUCAAGUGGCCCUAGUGAAUGAAGUGAAAGCAGCCCUGGGACGGGCGCUUGCUAUGGCUGAGAGUACAGAGAAGCACGCCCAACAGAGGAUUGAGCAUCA: 0.412 ratio
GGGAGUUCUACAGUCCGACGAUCGCGUUUCCUUCCCUUUCUGCGGGCCAGAAUCCCUGGAGGAACUUGUCUUCGGAGGAGCUGGAGAAGCAAUACUCACCCAGCAGAUGGGUCAUCCACACGAAACCAGAGGAAGUUGUUGGGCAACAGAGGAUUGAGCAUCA: 0.0668 ratio
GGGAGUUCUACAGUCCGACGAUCUAAAAGAAAUAGCUGUUAUUAAUGCCUUUUUGUUUUCCAUUGAGUGUACACUACUGAAUAAGUGUAGGAGUUUUAUGUUUACCAUGUGAGUCCUGCAACACUAAAGAUAUUUUGAAUAUCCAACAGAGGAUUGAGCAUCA: 0.623 ratio
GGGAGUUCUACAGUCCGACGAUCAAUGACAUAAUCCUGUAUGCAAAAAUUGAAGGAAGAAAAGAGCAUAUAACACUGGAUACCCUUUCCUAUUCCUCAUAUAAGGUUCCGUCUUUGGUUUCUGUGGUCAUCAAUCCUGAACUUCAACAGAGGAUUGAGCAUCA: 0.123 ratio
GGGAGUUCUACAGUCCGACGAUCCCCUCCAGAGCUCUCUUGAGUGCUGAGGCUUCGGUCUGACUUGCAGCCGCUGCAGAGAUAACGCCUGAGUCCUGAAUUGCUUUACCUAUUGCAAGUUAAAAGUCUACAGUUCAAACAAAACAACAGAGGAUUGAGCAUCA: 0.178 ratio
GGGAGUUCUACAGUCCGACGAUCGAUAUUCUAAGAUCACAGUGGUCUCCUGCUUUAACUAUUUCUAAAGUUCUUUUAUCCAUUUGUUCACUGCUAUGUGAUCCAAACCCAGACGACCCCCUAGUGCCAGAGAUUGCACGGAUCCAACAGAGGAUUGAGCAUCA: 1.33 ratio
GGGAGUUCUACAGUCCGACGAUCAUAUAUAUUCACUUGCAUUCAUGCAGAACACAAGCUUUGCUGUACAAAAUGUUGUGUUUCUUAGUGAUUUUAAAAGGCAUGCUUUGCAUGCAAAGGAAAACCAUUGCAGUUAGUCUUUUCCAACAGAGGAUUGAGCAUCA: 0.846 ratio
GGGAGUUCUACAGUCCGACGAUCACUGGAAUGUCAAACUCCUCAAAGUUGACCAGGAUAGCGCUUUGCACAAUGAUCUUCAGAUCCUGAAGGAGAAGGAAGGAGCAGACUUCAUCCUACUUAACUUCUCCUUUAAAGAUAACUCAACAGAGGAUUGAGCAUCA: 0.118 ratio
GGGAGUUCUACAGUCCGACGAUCAUAAAUGAAUGAUCACACACUCAUAUAAAACAGUUUUCUCUUAGAGCAGAGGUAGAGUUAAUAUAGAAAAACUAACAAAAAUCUUACAAGGGCAAGCUCAAUCAAUGAACAGUUUCUAGACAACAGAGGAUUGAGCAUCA: 5.96 ratio

Block 4 — method: protein-binding microarray; molecule type: double-stranded DNA, one strand shown; medium: in vitro; tested at: 250 nM; setting: 60-bp whole probe; added: salmon DNA 0.4 mg/ml; relative to: random background probes; direction: higher = stronger binding; quantity: log fluorescence; constant ends, left off below: GCCTAGCAC … GTCTTGATTCGCTTGACGCTGCTG
Target: Interferon regulatory factor 7, full length, phosphomimetic (IRF7, Homo sapiens, UniProt Q92985, residues 1-503, S101K/S471D/S472D/S475D/S476D/S477D/S483D/S484D/S487D)
Chain of UniProt Q92985 (whole entry, unmodified, looked up): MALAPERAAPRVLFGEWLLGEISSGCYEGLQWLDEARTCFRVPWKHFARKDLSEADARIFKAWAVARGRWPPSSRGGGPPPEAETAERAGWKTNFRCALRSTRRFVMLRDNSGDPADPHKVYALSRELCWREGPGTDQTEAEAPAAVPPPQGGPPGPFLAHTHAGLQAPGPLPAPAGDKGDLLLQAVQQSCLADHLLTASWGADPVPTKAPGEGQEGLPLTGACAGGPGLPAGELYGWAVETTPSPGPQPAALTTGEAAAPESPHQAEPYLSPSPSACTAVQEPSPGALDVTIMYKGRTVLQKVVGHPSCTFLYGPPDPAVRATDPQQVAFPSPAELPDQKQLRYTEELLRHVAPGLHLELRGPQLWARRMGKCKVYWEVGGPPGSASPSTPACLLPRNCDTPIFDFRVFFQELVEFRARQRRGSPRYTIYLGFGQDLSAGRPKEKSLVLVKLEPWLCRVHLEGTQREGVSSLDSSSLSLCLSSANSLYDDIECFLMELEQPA
TTTATTTTCTGAATGCCCTCGTGCTAG: 1.52 z-score
GACGGTCTCCTTCTCCTGCCGTGCTAG: -0.0583 z-score
TCAGCTTTACTGATGGCACTGTGCTAG: -0.544 z-score
TCAAAACTAAGTTTATTACTGTGCTAG: -0.0586 z-score
TTAGATATCAGGACTGGATTAGTGCTA: 0.00983 z-score
TTAGATATCGCGTTTCGATTAGTGCTA: 2.48 z-score
AACGATTTCGGGACTGGAGACGTGCTA: -0.094 z-score
TTAGATCTCAGTTTCGATTTGTGCTAG: 12.3 z-score
ATGTGTTTACAGATGTTTTTGTGCTAG: 0.215 z-score
CTCTAAGACACAAGATCAGAGTGCTAG: -0.0389 z-score
TTAGGTCTCCTACTACTTTAGTGCTAG: -0.15 z-score
TCAATTTCCACTTTGACACTGTGCTAG: 2.39 z-score
GACGGACAGGGACTGGGGACGTGCTAG: -0.672 z-score
TCATTTCTCCTTTCGGAACTGTGCTAG: 2.88 z-score
TCAGGTCTCGGTCTCGGTTAGTGCTAG: 2.58 z-score
TCATTTTTTCATATATAACTGTGCTAG: 1.29 z-score
GGGGATAAACTTAATGGATGGTGCTAG: -0.403 z-score
TCAAAATGATTGGTTGAACTGTGCTAG: -0.492 z-score
TCATACTTGTGTCTAGAACTGTGCTAG: 0.184 z-score
TCATTTTTTTTTTCATCACTGTGCTAG: 0.982 z-score

Excerpt of the above (block 4):
TTTATTTTCTGAATGCCCTCGTGCTAG: 1.52 z-score
GACGGTCTCCTTCTCCTGCCGTGCTAG: -0.0583 z-score
TCAGCTTTACTGATGGCACTGTGCTAG: -0.544 z-score
